Published values from different studies.
Every numbered part comes from another study and shows a few of its results, in no order.
UniProt Q9H2G2, sequence (whole entry, looked up): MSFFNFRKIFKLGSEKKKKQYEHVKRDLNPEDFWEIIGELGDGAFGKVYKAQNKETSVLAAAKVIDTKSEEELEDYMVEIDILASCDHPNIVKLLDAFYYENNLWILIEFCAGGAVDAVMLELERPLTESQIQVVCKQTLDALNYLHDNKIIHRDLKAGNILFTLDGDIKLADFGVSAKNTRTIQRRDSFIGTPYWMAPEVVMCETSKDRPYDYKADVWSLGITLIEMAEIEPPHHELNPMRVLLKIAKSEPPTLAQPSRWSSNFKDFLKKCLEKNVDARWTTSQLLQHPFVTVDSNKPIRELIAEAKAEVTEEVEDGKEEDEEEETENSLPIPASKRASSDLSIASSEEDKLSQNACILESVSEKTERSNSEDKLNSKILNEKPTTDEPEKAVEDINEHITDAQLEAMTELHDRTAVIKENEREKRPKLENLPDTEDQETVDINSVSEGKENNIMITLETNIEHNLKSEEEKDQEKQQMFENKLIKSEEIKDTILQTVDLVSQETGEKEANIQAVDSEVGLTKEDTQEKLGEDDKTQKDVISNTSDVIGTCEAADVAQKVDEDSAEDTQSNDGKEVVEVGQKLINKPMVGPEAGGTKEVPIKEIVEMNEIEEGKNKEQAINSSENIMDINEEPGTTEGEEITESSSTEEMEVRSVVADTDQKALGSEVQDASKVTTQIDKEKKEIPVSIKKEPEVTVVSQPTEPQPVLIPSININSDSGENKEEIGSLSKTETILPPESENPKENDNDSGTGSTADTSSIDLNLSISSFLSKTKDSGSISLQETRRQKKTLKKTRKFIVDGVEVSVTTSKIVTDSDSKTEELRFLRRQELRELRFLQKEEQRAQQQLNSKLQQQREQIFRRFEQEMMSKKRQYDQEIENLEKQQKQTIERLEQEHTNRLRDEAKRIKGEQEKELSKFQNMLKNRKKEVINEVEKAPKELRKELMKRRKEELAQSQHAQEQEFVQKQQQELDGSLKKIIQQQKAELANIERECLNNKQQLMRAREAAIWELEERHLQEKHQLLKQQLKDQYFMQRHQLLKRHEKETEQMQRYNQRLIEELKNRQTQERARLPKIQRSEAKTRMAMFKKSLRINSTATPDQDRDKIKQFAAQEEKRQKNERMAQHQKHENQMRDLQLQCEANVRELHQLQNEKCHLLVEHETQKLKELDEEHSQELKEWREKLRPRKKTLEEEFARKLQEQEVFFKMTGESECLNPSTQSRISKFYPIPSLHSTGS
UniProt P61081, sequence (whole entry, looked up): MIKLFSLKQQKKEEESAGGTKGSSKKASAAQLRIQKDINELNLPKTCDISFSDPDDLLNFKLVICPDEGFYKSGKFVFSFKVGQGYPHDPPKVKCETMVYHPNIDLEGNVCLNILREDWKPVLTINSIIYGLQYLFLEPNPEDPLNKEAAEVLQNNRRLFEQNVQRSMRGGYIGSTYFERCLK
UniProt Q7Z7E8, sequence (whole entry, looked up): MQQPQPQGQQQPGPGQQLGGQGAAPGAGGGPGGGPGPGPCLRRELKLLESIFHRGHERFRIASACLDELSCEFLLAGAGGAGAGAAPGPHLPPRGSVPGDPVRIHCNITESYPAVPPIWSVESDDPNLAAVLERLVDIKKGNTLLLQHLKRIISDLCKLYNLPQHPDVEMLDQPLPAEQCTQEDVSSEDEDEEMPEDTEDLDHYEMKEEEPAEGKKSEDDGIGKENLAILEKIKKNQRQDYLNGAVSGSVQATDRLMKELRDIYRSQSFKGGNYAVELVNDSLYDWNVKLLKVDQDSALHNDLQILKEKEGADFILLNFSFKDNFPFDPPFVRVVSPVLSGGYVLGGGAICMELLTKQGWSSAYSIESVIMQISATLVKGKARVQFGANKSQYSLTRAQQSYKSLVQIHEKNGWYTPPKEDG
UniProt Q16763, sequence (whole entry, looked up): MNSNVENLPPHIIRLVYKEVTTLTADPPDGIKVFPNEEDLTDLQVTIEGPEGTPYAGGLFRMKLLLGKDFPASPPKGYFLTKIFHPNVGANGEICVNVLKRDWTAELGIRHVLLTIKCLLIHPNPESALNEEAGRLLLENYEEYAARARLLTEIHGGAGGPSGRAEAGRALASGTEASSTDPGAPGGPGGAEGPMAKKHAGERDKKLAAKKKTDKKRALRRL
UniProt P63146, sequence (whole entry, looked up): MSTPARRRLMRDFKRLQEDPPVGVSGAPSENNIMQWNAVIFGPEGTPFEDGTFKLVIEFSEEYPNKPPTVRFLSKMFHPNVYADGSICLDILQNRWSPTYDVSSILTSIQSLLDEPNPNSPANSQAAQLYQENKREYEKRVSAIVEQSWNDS
UniProt P68036, sequence (whole entry, looked up): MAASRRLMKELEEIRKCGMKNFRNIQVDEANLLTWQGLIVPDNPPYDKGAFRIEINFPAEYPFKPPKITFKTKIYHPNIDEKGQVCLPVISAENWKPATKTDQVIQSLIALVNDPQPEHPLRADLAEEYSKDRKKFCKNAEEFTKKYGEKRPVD
UniProt P62253, sequence (whole entry, looked up): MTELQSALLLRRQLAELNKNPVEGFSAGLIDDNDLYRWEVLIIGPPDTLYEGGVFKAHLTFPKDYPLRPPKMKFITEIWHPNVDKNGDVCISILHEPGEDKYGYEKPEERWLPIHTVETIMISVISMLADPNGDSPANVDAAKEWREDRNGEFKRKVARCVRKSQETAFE
UniProt P51668, sequence (whole entry, looked up): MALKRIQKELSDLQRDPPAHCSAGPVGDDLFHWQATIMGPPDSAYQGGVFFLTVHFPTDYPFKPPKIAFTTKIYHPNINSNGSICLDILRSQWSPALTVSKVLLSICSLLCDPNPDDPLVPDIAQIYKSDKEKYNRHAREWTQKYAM
UniProt Q9C0C9, sequence (whole entry, looked up): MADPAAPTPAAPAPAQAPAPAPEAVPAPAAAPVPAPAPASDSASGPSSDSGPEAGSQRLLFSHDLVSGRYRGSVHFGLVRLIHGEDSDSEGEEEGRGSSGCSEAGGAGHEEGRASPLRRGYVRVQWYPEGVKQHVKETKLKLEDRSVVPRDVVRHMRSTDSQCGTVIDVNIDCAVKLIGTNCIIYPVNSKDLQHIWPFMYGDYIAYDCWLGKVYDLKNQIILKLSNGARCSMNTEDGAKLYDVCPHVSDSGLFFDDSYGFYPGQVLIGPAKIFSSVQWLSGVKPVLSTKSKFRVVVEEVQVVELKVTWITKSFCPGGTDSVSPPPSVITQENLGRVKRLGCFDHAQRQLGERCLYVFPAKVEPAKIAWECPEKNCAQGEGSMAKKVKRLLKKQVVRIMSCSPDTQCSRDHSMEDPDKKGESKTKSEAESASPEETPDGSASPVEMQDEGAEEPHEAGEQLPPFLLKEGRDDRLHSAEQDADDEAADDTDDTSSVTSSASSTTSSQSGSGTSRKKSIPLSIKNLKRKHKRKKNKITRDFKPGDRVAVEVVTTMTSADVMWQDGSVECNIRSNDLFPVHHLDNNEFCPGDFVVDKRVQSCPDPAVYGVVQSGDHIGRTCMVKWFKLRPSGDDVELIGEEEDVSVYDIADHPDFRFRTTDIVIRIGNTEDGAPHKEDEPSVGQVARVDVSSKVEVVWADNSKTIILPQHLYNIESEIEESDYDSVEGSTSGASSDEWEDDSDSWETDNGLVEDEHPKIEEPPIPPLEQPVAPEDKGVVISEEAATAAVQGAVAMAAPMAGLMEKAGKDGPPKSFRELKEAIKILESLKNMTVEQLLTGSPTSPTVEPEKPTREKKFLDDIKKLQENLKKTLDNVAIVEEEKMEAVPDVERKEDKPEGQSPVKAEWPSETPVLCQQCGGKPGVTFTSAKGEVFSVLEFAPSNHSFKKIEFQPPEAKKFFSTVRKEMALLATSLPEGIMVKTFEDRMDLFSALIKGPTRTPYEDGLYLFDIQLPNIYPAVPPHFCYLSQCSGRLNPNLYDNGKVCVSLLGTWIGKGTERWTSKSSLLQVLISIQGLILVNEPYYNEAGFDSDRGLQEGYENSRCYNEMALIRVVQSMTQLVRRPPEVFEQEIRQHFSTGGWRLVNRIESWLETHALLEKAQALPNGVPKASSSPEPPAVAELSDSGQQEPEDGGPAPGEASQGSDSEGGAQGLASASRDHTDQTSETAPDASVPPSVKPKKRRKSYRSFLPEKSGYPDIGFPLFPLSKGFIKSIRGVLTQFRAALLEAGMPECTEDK

Sample 1
Sequence: B1 (RNF7 RING domain)
Technique: yeast two-hybrid
Matrix: yeast
Setting: mostly zero background
Reference: not given
Reading: higher = stronger interaction
B1: RNF7 RING domain (UniProt Q9UBF6); chain AICRVQVMDACLRCQAENKQEDCVVVWGECNHSFHNCCMSLWVKQNNRCPLCQQDWVVQRIGK
target | lacZ reporter activity
UBE2B UBC core domain (UniProt P63146) | 0
UBE2S UBC core domain (UniProt Q16763) | 0
UBE2G1 UBC core domain (UniProt P62253) | 0
UBE2M UBC core domain (UniProt P61081) | 0
UBE2O UBC core domain (UniProt Q9C0C9) | 0
UBE2Q1 UBC core domain (UniProt Q7Z7E8) | 0
UBE2L3 UBC core domain (UniProt P68036) | 0
UBE2D1 UBC core domain (UniProt P51668) | 0

Sample 2
Target: Ras GTPase-activating protein-binding protein 1, RRM domain (G3BP1, Homo sapiens, UniProt Q13283)
UniProt Q13283, sequence (whole entry, looked up): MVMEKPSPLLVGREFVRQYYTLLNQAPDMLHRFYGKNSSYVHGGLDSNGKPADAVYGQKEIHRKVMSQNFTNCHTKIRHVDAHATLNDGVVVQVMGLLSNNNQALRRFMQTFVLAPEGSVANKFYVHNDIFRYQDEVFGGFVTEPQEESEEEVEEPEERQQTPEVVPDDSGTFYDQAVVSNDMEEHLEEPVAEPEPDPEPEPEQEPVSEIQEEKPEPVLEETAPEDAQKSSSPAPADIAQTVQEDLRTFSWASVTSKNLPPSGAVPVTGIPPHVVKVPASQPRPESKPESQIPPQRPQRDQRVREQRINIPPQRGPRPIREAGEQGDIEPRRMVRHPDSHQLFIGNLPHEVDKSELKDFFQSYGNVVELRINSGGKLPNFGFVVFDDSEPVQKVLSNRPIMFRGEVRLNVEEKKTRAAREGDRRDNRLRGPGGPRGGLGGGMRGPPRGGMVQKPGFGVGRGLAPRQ
Technique: RNA Bind-n-Seq
Molecule type: RNA
Matrix: in vitro
Tested at: 1 µM
Setting: whole 134-nt RNA, ends assumed
Together with: 150 mM KCl
Reference: input library
Reading: higher = stronger binding
All sequences stand within: GGGAGUUCUACAGUCCGACGAUC … UGGAAUUCUCGGGUGUCAAGG
Strand | log2 enrichment
GUCCUGUGCUACACAUCGUAUGUACCGAAUCGGGAAAAAAAGGGAGGGAAAAAAAGGGAAAGUAUUAUGUUACGCCGUUCGGAUCUGCAC | 0.3
AGUCCUGUGCUACACAUCGUAUGUACCGAAUCGGGAAAAAGGGAAAAAGGGAAAGGGAAAGUAUUAUGUUACGCCGUUCGGAUCUGCACU | 0.296
CUGUGCUACACAUCGUAUGUACCGAAUCGGGUUUUUUUGGGAAAAAAAGGGUUUUUUUGGGAAAGUAUUAUGUUACGCCGUUCGGAUCUG | -0.451
UCCUGUGCUACACAUCGUAUGUACCGAAUCGGGUUUUUUUGGGAAAAAAAGGGAAAGGGAAAGUAUUAUGUUACGCCGUUCGGAUCUGCA | -0.296
UAACUUUAGAGGAGGAUCUGAUGGAUAUGGCAGUGGACGUGGAUUUGGGGAUGGCGAUAAUGGGUAUGGAGGAGGACCUGGAGGUGGCAA | -0.355
AAGUCCUGUGCUACACAUCGUAUGUACCGAAUCGGGGAAAAGGGAAAAGGGAAAAGGAAAGUAUUAUGUUACGCCGUUCGGAUCUGCACU | -0.0766
UGGGAGGUGGAUUUUGUUUAUUUUUUUAGCUCAUUUCCAGGGGUGGGAAUUUUUUUUUAAUAUGUUUCAUGAAUAAAGUUGUUUUUGAAA | 1.06
UGGCCCUGGUGGCAUGCGGGGAGGAAGAGGUGGCCUCAUGGAUCGUGGUGGUCCCGGUGGAAUGUUCAGAGGUGGCGGUGGUGGAGACAG | 1.33

Sample 3
Target: TAR DNA-binding protein 43, full length, His tag (TARDBP, Homo sapiens, UniProt Q13148, residues 1-414)
Technique: RNA Bind-n-Seq
Molecule type: RNA
Matrix: in vitro
Tested at: 20 nM
Setting: 6-mer, flanks averaged, single round
Together with: 150 mM KCl
Reference: input library
Reading: higher = stronger binding
Strand | 6-mer enrichment (R)
UCACGG | 0.991
ACCCGG | 0.881
CCCUAA | 0.631
UAUUCU | 0.56
UUGCAC | 0.658
UAUGCA | 0.758
CGGCUU | 0.736
UGUCCG | 0.797

Other studies, line by line
SMILES | target | assay | setting | how to read | quantity | value
Nc1nc(Nc2ccc(S(N)(=O)=O)cc2)nn1C(=O)c1c(F)cccc1F | STE20-like serine/threonine-protein kinase (SLK, Homo sapiens, UniProt Q9H2G2) | enzyme activity, inhibitor | 0.5 µM | reference: control | remaining activity | 19.1%

A few entries again (sample 1):
target | lacZ reporter activity
UBE2S UBC core domain (UniProt Q16763) | 0
